Results of several laboratories.
Each line is one published result; not all experiments were run side by side. ± marks the error that the study gave.
Cell line: A549

| Structure (SMILES) | test | conditions | IC50 |
| --- | --- | --- | --- |
| C=C(C)[C@@H]1CC[C@]2(C(=O)O)CC[C@]3(C)[C@H](CC[C@@H]4[C@@]5(C)CC[C@H](O[C@@H]6O[C@@H](C)[C@H](O)[C@@H](O)[C@H]6O)C(C)(C)[C@@H]5CC[C@]43C)[C@@H]12 | cell growth or viability, fluorescence | 48 h | 3.3 µM |
| Cc1cc(/C=C/C#N)cc(C)c1Oc1cc(Nc2ccc(C#N)cn2)nc2cnccc12 |  | 48 h | 26 ± 0.6 µM |
| Cc1c(C)c(C)[c-](C)c1C.O=Cc1c[c-]c(-c2ccccn2)cc1.[Cl-].[Ir+3] | SRB | 24 h, 72 h recovery | 15.8 ± 0.4 µM |
| Nc1nc(-c2ccc(Cl)cc2)c(C(=O)c2ccccc2)[nH]1 | cell growth or viability, SRB | 24 h | 0.247 µM |
| Cc1ccc(C(=O)/C=C/c2cn(CC(=O)Nc3nc(-c4ccccc4)cs3)nn2)cc1 | cell growth or viability, MTT | 72 h | 0.151 µM |
| CC(C)c1cccc(C(C)C)c1[N+]#[C][Pd-]([Cl])([Cl])=[C](Nc1ccc(CN[C](NC(C)(C)C)=[Au][Cl])cc1)Nc1c(C(C)C)cccc1C(C)C | cell growth or viability |  | > 100 µM |
| [Cl-].[Cl-].[Ru+2].c1ccc(-c2ccccn2)nc1.c1ccc(-c2ccccn2)nc1.c1ccc(-c2ccnc3c2ccc2c(-c4ccccc4)ccnc23)cc1 | resazurin | 72 h, added: indigo light 450 nm, 29.1 J/cm2 | 2.34 µM |
| COc1ccc(C2=NN(C3=NC(=O)C(=Cc4ccc(O)cc4)S3)C(c3ccc(F)cc3)C2)cc1 (centres unmarked) | cell growth or viability, MTT |  | 3.92 µM |
| C=C1C2CCC3(CCC4C5(C)CCCC4(CN(CCO)C5)C3C2)C1O (centres unmarked) | cell growth or viability, MTT |  | 13.7 µM |
| CC[C@H](C)[C@H](N)C(=O)Nc1ccc2nc(Cc3c[nH]c4ccccc34)[nH]c2c1 | cell growth or viability, ATP luminescence | 72 h | 16.2 µM |
| CC[C@@]1(C)CC[C@H]2[C@@](C)(CC[C@@]3(C)[C@@H]4CC(C)(C)CC[C@]4(C)CC[C@]23C)[C@@H]1CCC(=O)O | cell growth or viability, SRB |  | 34 µM |
| S=c1[nH]c(=S)c2sc3sc4c(=S)[nH]c(=S)[nH]c4c3c2[nH]1 | cell growth or viability, MTT |  | 5.67 µM |
| C=CC(=C)CC[C@]1(C)[C@H](C)C[C@H](OC(=O)CCCCCCC)[C@@]23C(=C[C@H](OC(C)=O)C[C@@H]12)[C@@H](OC(C)=O)O[C@H]3OC(C)=O | cell growth or viability, SRB |  | 5.98 µM |
| COc1c(O)cc2oc3cc4c(c(O)c3c(=O)c2c1CC=C(C)C)C=CC(C)(C)O4 | cell growth or viability | 48 h | 11.5 µM |
| Nc1cccc[n+]1Cc1cccc(C[n+]2ccccc2N)c1 | cell growth or viability, MTT | 24 h | 487 µM |
| Cc1cc(C)c([N+]#[C][Pt-2]([Cl])([Cl])[C]#[N+]c2c(C)cc(C)cc2C)c(C)c1 | cell growth or viability |  | > 100 µM |
| CCN1CCC2(CC1)C/C(=N\N=C\c1ccc(O)cc1)c1ccccc1O2 | cell growth or viability, MTT | 48 h | 20.6 µM |
| CCOC(=O)c1ccc2c(c1)n(CC)[c]([Au-]([Cl])([Cl])[Cl])[n+]2CC | cell growth or viability, crystal violet | 72 h | 13.2 µM |
| CCCC(CCC)C(=O)[O][Pt]([Cl])([Cl])[O]C(C)=O.N.N | cell growth or viability |  | 8.36 µM |
| Cc1cc(C)c([N+]#[C][Pt-]([Cl])([Cl])=[C](Nc2cccc(CN[C](Nc3c(C)cc(C)cc3C)=[Au][Cl])c2)Nc2c(C)cc(C)cc2C)c(C)c1 | cell growth or viability |  | > 100 µM |
| COCCOCCSc1nc(N)c2c(F)c(C#N)c(F)c(Cl)c2n1 | cell growth or viability, MTT | 96 h | 6.03 µM |

| Structure (SMILES) | test | conditions | IC50 |
| --- | --- | --- | --- |
| CC(=O)O[C@@H]1CC[C@@]2(C)[C@@H](CC[C@]3(C)[C@@H]2C(=O)C=C2[C@@H]4[C@@H](C)[C@H](C)CC[C@]4(C)CC[C@]23C)[C@@]1(C)C(=O)NCCNC(=O)CC[P+](c1ccccc1)(c1ccccc1)c1ccccc1 | cell growth or viability, MTT | 48 h | > 30 µM |
| CCOC(=O)C1=C(C)NC(=O)N[C@@H]1/C=C/c1ccc(OC)cc1 | cell growth or viability, MTT | 24 h | 7.1 µM |
| Cc1ccc(S(=O)(=O)c2c(-c3ccccc3)c3c(C)c4ccccc4n3c3ccccc23)cc1 | cell growth or viability, MTT | 72 h | 14.6 µM |
| N#Cc1cccc(-c2ccc(=O)n(Cc3cccc(-c4ncc(OCC5CCN(CC(=O)N6CCN(c7ccc8c(c7)C(=O)N(C7CCC(=O)NC7=O)C8=O)CC6)CC5)cn4)c3)n2)c1 (centres unmarked) | cell growth or viability, CCK-8 | 72 h | 0.377 µM |
| [Cl-].[Cl-].[Ru+2].c1ccc2nc(-c3ccc4ccccc4n3)ccc2c1.c1cnc2c(c1)ccc1cccnc12.c1cnc2c(c1)ccc1cccnc12 | cell growth or viability | 72 h, dark | 43.4 µM |
| O=C1c2cccc3cccc(c23)C12NC(Cc1ccc(O)cc1)C([N+](=O)[O-])C2c1ccc(Cl)cc1 (centres unmarked) | cell growth or viability, MTT | 24 h | 59.2 µM |
| CC(=O)O[C@@H]1CC[C@@]2(C)[C@@H](CC[C@]3(C)[C@@H]2C(=O)C=C2[C@@H]4[C@@H](C)[C@H](C)CC[C@]4(C)CC[C@]23C)[C@@]1(C)C(=O)NCCNC(=O)CCCCCCCCCC[P+](c1ccccc1)(c1ccccc1)c1ccccc1 | cell growth or viability, MTT | 48 h | 1.32 µM |
| O=[N+]([O-])[O-].[NH3+][Pt-2]1([NH3+])[O]C(c2ccccc2)=CC(c2ccccc2)=[O+]1 (centres unmarked) | cell growth or viability, MTT |  | 1.3 µM |
| CC(=O)O[C@@H]1CC[C@@]2(C)[C@@H](CC[C@]3(C)[C@@H]2C(=O)C=C2[C@@H]4[C@@H](C)[C@H](C)CC[C@]4(C)CC[C@]23C)[C@@]1(C)C(=O)NCCNC(=O)CCCCCCCCCCBr | cell growth or viability, MTT | 48 h | > 30 µM |
| Cc1ccc(C2=NN(C3=NC(=O)C(=Cc4ccc(O)cc4)S3)C(c3ccc(F)cc3)C2)cc1 (centres unmarked) | cell growth or viability, MTT |  | 4.41 µM |
| Cl.[Cl][Ru-]1[S+]=C(NC2CCCCC2)N[N+]1=Cc1ccc(N(c2ccc(-c3ccsc3)cc2)c2ccc(-c3ccsc3)cc2)cc1.c1ccccc1 | cytotoxicity, MTT | 24 h | > 100 µM |
| O=C1c2ccc3c4cccc5c(N6CCNCC6)ccc(c6ccc(c2c36)C(=O)N1CCN1CCCCC1)c54 | cell growth or viability, SRB | 72 h | 36.9 µM |
| CC1=C(Cn2c3cccc(=O)c-3nc3ccccc32)CCC(C)(C)C1 | cell growth or viability, CCK-8 | 72 h | 0.38 µM |
| C=CC(=O)Nc1cc(Nc2nccc(-c3c(-c4ccc5c(c4)OCO5)n(C)c4ccccc34)n2)c(OC)cc1N(C)CCN(C)C | cell growth or viability, MTT | 72 h | 1.11 µM |
| Cc1ccc(C(C)C)cc1.[Cl-].[Cl-].[Ru+2].c1ccc(P(=Nc2cccc3cccnc23)(c2ccccc2)c2ccccc2)cc1 | cell growth or viability, MTT | 24 h | 43.3 µM |
| C[O][Pt-2]([NH3+])([NH3+])([Cl])([Cl])[O]C(=O)CCC(=O)OCCO | cell growth or viability, MTT | 96 h | 132 µM |
| C[C@]12CC/C(=N\OCCN3CCOCC3)C=C1CCC1C2CC[C@]2(C)/C(=C/c3ccccn3)CCC12 (some centres unmarked) | cell growth or viability, MTT | 72 h | 5.6 µM |
| O=C1/C(=C/c2ccc3c(c2)OCCO3)SC(=S)N1[C@@H]1O[C@H](CO)[C@@H](O)[C@H](O)[C@H]1O | cell growth or viability, MTT | 48 h | 4.5 µM |
| CC(C)=CCc1c2c(c(O)c3c(=O)c(-c4ccc(O)cc4)coc13)CC(C(C)(C)O)O2 (centres unmarked) | cell growth or viability, MTT |  | 40.3 µM |
| COc1ccc(/C=C/C2=[N+]3C(=C(COC(C)=O)c4c(C)cc(/C=C/c5ccc(OC)cc5)n4[B-]3(F)F)C(C)=C2)cc1 | cell growth or viability, resazurin | dark | > 100 µM |
